Earlier results as cited in several papers.
Each numbered part shows a few of the values that one paper quotes. ≈ marks a conversion by molar mass, not a printed value.
UniProt O14965, sequence (whole entry, looked up): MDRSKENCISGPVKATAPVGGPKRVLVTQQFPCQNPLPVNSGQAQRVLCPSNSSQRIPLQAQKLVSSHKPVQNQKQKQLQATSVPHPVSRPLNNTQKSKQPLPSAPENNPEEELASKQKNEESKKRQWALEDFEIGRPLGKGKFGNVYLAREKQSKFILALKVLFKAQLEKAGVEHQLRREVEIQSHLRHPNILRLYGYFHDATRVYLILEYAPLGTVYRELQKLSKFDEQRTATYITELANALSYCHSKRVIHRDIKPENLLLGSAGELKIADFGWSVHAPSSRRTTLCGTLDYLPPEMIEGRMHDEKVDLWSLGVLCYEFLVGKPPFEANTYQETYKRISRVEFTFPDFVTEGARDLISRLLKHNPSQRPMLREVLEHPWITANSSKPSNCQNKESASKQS

Set 1
Organism: Cryptosporidium parvum
Method: high-throughput screen
Concentration: concentration not given
SMILES | activity
CC(=O)OCC(=O)[C@@]1(O)CC[C@H]2[C@@H]3C[C@H](C)C4=CC(=O)C=C[C@]4(C)[C@H]3[C@@H](O)C[C@@]21C | inactive
CC(C)OC(=O)CCC/C=C\C[C@@H]1[C@@H](CC[C@@H](O)CCc2ccccc2)[C@H](O)C[C@@H]1O | inactive
OC(CCN1CCCC1)(c1ccccc1)C1CCCCC1 (centres unmarked) | inactive
O=C1c2c(O)ccc(O)c2C(=O)c2c(NCCNCCO)ccc(NCCNCCO)c21 | inactive
CCOC(=O)O[C@]1(C(=O)OCCl)CC[C@H]2[C@@H]3CCC4=CC(=O)C=C[C@]4(C)[C@H]3[C@@H](O)C[C@@]21C | inactive
CC[N+](C)(C)c1cccc(O)c1 | inactive
CC(=O)NS(=O)(=O)c1ccc(N)cc1 | inactive
CCCc1nc(C(C)(C)O)c(C(=O)OCc2oc(=O)oc2C)n1Cc1ccc(-c2ccccc2-c2nnn[nH]2)cc1 | inactive
O=C(N[C@H](CO)[C@H](O)c1ccc([N+](=O)[O-])cc1)C(Cl)Cl | inactive
Nc1ccn([C@H]2CC[C@@H](CO)O2)c(=O)n1 | inactive
Cn1nnc2c(C(N)=O)ncn2c1=O | inactive
COc1ccc(C2CNC(=O)C2)cc1OC1CCCC1 (centres unmarked) | inactive
CCC1=C(C)CN(C(=O)NCCc2ccc(S(=O)(=O)NC(=O)N[C@H]3CC[C@H](C)CC3)cc2)C1=O | inactive
Cc1ccc(O)c([C@H](CCN(C(C)C)C(C)C)c2ccccc2)c1 | inactive
NS(=O)(=O)c1cc2c(cc1C(F)(F)F)NC(Cc1ccccc1)NS2(=O)=O (centres unmarked) | inactive
CCOC(=O)C1=C(C)NC(C)=C(C(=O)OC)C1c1cccc([N+](=O)[O-])c1 (centres unmarked) | inactive
CN(C)CC[C@@H](c1ccc(Br)cc1)c1ccccn1 | inactive
CN(C)CCCC1(c2ccc(F)cc2)OCc2cc(C#N)ccc21 (centres unmarked) | inactive
Cc1ccc(C)c(OCCCC(C)(C)C(=O)O)c1 | inactive
CC(=O)O[C@]1(C(C)=O)CC[C@H]2[C@@H]3C=C(C)C4=CC(=O)CC[C@]4(C)[C@H]3CC[C@@]21C | inactive
CN1CCN(C2=Nc3cc(F)ccc3Cc3ccccc32)CC1 | inactive
CN(C)C(=O)C(CCN1CCC(O)(c2ccc(Cl)cc2)CC1)(c1ccccc1)c1ccccc1 | inactive
NC(=O)OCC(COC(N)=O)c1ccccc1.O | inactive
OCCN(CCO)c1nc(N2CCCCC2)c2nc(N(CCO)CCO)nc(N3CCCCC3)c2n1 | inactive
CC(=O)O.CNC(=N)NCCC[C@H](N)C(=O)O | inactive

Mixed results
DRD3: D(3) dopamine receptor (DRD3, Homo sapiens, UniProt P35462)
UniProt P35462, sequence (whole entry, looked up): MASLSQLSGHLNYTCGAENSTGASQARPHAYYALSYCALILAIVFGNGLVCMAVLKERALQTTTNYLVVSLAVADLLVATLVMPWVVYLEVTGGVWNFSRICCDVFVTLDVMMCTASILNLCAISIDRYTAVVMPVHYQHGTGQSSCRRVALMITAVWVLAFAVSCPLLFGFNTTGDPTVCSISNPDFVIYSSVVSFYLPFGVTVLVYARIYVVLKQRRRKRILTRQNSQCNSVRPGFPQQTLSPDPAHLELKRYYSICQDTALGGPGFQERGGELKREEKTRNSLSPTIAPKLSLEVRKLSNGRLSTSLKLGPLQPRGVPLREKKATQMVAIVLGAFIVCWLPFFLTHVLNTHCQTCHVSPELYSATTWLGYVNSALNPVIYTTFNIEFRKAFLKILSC
SMILES | target or system | test | test system | setting | scale | measurement | result
CCCc1cc2cc(-n3nc(C)c4c3CC(C)(C)CC4=O)cc(N3CCC(O)CC3)c2c(=O)[nH]1 |  |  |  | pH 6.8 |  | aqueous solubility | 0.014 µM (≈ 6.48 ng/mL)
Cn1cncc1[C@@](N)(c1ccc(Cl)cc1)c1ccc2c(c1)c(-c1cccc(Cl)c1)cc(=O)n2C |  |  | human adults, relapsed/refractory AML | dose not given |  | response rate | 11%
CC(=O)c1c(C)c2cnc(Nc3ccc(N4CCNCC4)cn3)nc2n(C2CCCC2)c1=O | human neutrophils |  |  | concentration not given, added: fMLF |  | cAMP level | no effect
CCCN(CCC1(O)CC(NC(=O)c2ccc3ccccc3c2)C1)C1CC1c1ccc(Cl)cc1 (centres unmarked) | DRD3 | binding |  |  |  | Ki | 2.8 nM
CN(C)CC/C=C1/c2ccccc2Sc2ccc(Cl)cc21 | MCF7 | microarray, Connectivity Map, refers to: LPIN1 mRNA |  | concentration not given, 6 h | baseline: DMSO | fold change | 2.43
CCOc1cc2ncc(C#N)c(Nc3ccc(OCc4ccccn4)c(Cl)c3)c2cc1NC(=O)/C=C/CN(C)C |  |  | human | 240 mg, single dose |  | half-life | 13.9 h
CC1(C)S[C@@H]2[C@H](NC(=O)[C@H](N)c3ccccc3)C(=O)N2[C@H]1C(=O)O | Staphylococcus aureus |  |  |  |  | MIC | 0.02 to 25 µg/mL (≈ 0.0572 to 71.5 µM)
O=C(NCc1ncc(C(F)(F)F)cc1Cl)c1ccc2c(c1)C1(CCS(=O)(=O)CC1)[C@H](C1CC1)N2S(=O)(=O)c1ccc(F)cc1 | GNRHR | biochemical activity |  |  |  | IC50 | 21 nM
O=C(O)C(=O)O | anion exchanger, human | substrate | neutrophils |  |  | Km | > 95 mM
CN(C)C(=O)c1cc2cnc(Nc3ccc(N4CCNCC4)cn3)nc2n1C1CCCC1 |  |  | patients | dose not given, monotherapy |  | grade ≥3 anemia incidence | 3%
O=S(=O)(O)O | anion exchanger, human | substrate | neutrophils |  |  | Km | > 95 mM
CCc1cc(Cl)c(OC)c(N2CCN(C[C@H](O)CCNC(=O)c3cc4ccccc4[nH]3)CC2)c1 | DRD3 | binding |  |  |  | Ki | 6.8 nM
Cc1cc(C)c(CNC(=O)c2cc(Cl)c3c(c2C)O[C@@](C)([C@H]2CC[C@H](N(C)C)CC2)O3)c(=O)[nH]1 |  |  | healthy human, fasted | oral, 200 mg single dose |  | Cmax | 1500 ng/mL
C[C@@]1(Cc2ccc(C#N)cc2)C(=O)N(c2cc(Cl)cc(Cl)c2)c2ncc(C(=O)NC3(c4nc(C5CCC5)no4)CC3)n21 | ITGAL | cell-based |  |  |  | IC50 | > 1000 nM
Nc1nc2c(ncn2COCCO)c(=O)[nH]1 | dopamine transporter |  |  |  |  | IC50 | > 10000 nM
CC(=O)c1c(C)c2cnc(Nc3ccc(N4CCNCC4)cn3)nc2n(C2CCCC2)c1=O |  |  | human | 125 mg, single dose |  | half-life | 25.9 h
CCCc1nc2c(C)cc(-c3nc4ccccc4n3C)cc2n1Cc1ccc(-c2ccccc2C(=O)O)cc1 |  |  | human | dose not given |  | Cmax | 300 nM
COc1ccc([C@@H](O)c2cc(-c3ncnc4cc(N5CCOCC5)ccc34)c(F)cc2Cl)nn1 |  |  | mouse | oral, 20 mg/kg |  | Tmax | 2 h
CCn1cc(-c2ccnc3[nH]c(-c4cccc(CN(C)C)c4)cc23)c(-c2ccc(NC(=O)N(C)C)cc2)n1 | Aurora kinase A (AURKA, Homo sapiens, UniProt O14965) |  |  |  | baseline: AURKB over AURKA | selectivity ratio | > 250 fold
CCCCCCCCNC(C)C(O)c1ccc(SC(C)C)cc1 (centres unmarked) | MCF7 | microarray, refers to: USO1 mRNA |  | concentration not given | baseline: DMSO | log2 fold change | 1.22
CN(C)C(=O)N[C@H]1CC[C@H](CCN2CCN(c3cccc(Cl)c3Cl)CC2)CC1 | dopamine D2 receptor | binding |  |  |  | Ki | 0.642 nM
N[C@@H](C[18F])C(=O)O |  |  | tumour-bearing rat, bone | 30 min |  | tissue uptake | > 4 %ID/g
CCC(C)n1ncn(-c2ccc(N3CCN(c4ccc(OCC5COC(Cn6cncn6)(c6ccc(Cl)cc6Cl)O5)cc4)CC3)cc2)c1=O (centres unmarked) | BCRP (ABCG2) | inhibitor |  | literature minimum |  | IC50 | 1900 nM
O=C(N[C@H](CO)[C@H](O)c1ccc([N+](=O)[O-])cc1)C(Cl)Cl | Staphylococcus aureus |  |  |  |  | MIC | ≥ 3.1 µg/mL
CC(C)NC(=O)COc1cccc(-c2nc(Nc3ccc4[nH]ncc4c3)c3ccccc3n2)c1 |  |  | healthy human subjects | dose not given, added: rifampin (strong CYP3A4 inducer) |  | Cmax decrease | 59%
